Assay results gathered from unrelated publications.
Each line is one published result; not all experiments were run side by side. Several values in a cell are separate wells, animals, samples, runs or records.

CCC1NC2CC3(C(=O)N(OC)c4cc(OC)ccc43)C3OCC2C1C3O (stereo not shown)  viability (HT-22; CCK-8; up to 100 µM, 24 h): no effect
CN1CCCNC(=O)c2cccc(c2)C(=O)NCCCN(C)CCCNc2cccc3c2C(=O)c2cccc(c2C3=O)NCCC1  log2 fold change (SAS; RNA-Seq, item: TMEM192 mRNA; 1 µM, 6 h; baseline: untreated cells): -0.769
CCN(CC)CC(=O)Nc1cccc(-n2cc(-c3ccc4ccc(-c5cn(-c6cccc(NC(=O)CN(CC)CC)c6)nn5)cc4c3)nn2)c1  fold regulation (RCC4; PCR array, item: LEP; 5 x IC50, 6 h, normoxia; baseline: untreated): 1.56
CC(C)Cc1ccc(C(C)C(=O)[Se]CC(=O)Nc2cccc(C(F)(F)F)c2)cc1 (stereo not shown)  mean growth percent (NCI60 breast subpanel; cell growth; 10 µM, 48 h, one-dose): -76.3%
O=c1c(-c2ccc(Cl)c(CN3CCOCC3)c2)coc2cc(O)ccc12  share of DHEA-affected genes regulated (VCaP; RNA-seq; 1 µM, together with: DHEA 200 nM): 87%
CC(C)(C)c1cc(-c2ccc3cccnc3n2)nc(-c2ccc3cccnc3n2)c1.[Cl-].[Cl-].[Ru+2].c1cnc2c(c1)ccc1cccnc12  phototoxicity index (B16-F10; resazurin; together with: light 633 nm, 100 J/cm2; baseline: dark EC50 over light EC50): 1
C1=[N+]2CCCC[N+]3=Cc4ccc5[n]4[Au-]23[n]2c1ccc2-c1nc2ccccc2nc1-5.F[P-](F)(F)(F)(F)F  TGI (OVCAR-4; NCI60 five-dose screen): 4.46 -log M
CC(=O)Oc1ccccc1C(=O)[Se]CC(=O)Nc1cccc(C(F)(F)F)c1  mean growth percent (NCI60 breast subpanel; cell growth; 10 µM, 48 h, one-dose): -43.2%
CC(=O)NCC(=O)N[C@@H](Cc1ccccc1)C(=O)N[C@@H](Cc1ccccc1)C(=O)N[C@@H](Cc1ccc(O)cc1)C(=O)NCC(=O)N[C@@H](Cc1ccc(O)cc1)C(=O)NCC(=O)N[C@@H](CO)C(=O)N[C@@H](CO)C(=O)N[C@@H](CO)C(=O)N[C@@H](CCCNC(=N)N)C(=O)N[C@@H](CCCNC(=N)N)C(=O)N[C@@H](C)C(=O)N1CCC[C@H]1C(=O)N[C@@H](CCC(N)=O)C(=O)N[C@H](C(=O)O)[C@@H](C)O  GSK3β phosphorylation (mouse dermal papilla cells; western blot; 100 nM): increased
Cc1cc(Cl)cc(-c2ccnc3cc(CN4C(=O)C5C(C4=O)C5(C)C)sc23)c1C[C@@H]1CNCCO1 (stereo partly shown)  G2/M phase cells (CHP-212 resistant; PI flow cytometry; 0.3 µM, 24 h): 12.1%
CCN(C(=O)c1cc(F)ccc1Oc1nncnc1N1CCC2(C1)CN([C@H](CCCN(C)CCOC)C(C)C)C2)C(C)C  GI50 (MHH-ES-1; cell growth or viability; 7 days): > 10000 nM
CC(=NN=c1sc(C(=O)c2ccccc2)nn1-c1ccccc1)c1ccc(S(=O)(=O)N2CCC(C)CC2)cc1  cells in G0/G1 phase (HCT-116; flow cytometry; 3.66 µM (IC50), 72 h): 44.1%
CO[C@@H]1[C@@H](OC(N)=O)[C@@H](O)[C@H](Oc2ccc3c(O)c(NC(=O)c4ccc(O)c(CC=C(C)C)c4)c(=O)oc3c2C)OC1(C)C  colony survival (HCT-116 BRCA2 wild-type; 200 µM, mean of replicates A, B; baseline: untreated): 65.8%
NC(=O)c1ccc(-c2ccccc2Cl)c2c3c([nH]c12)CC[C@@H](N)C3  IC50 (SU-DHL-4; cell growth or viability): 22.2 nM
Cc1ncsc1-c1ccc(C(C)NC(=O)C2CC(O)CN2C(=O)C(NC(=O)CCCCCCCCCCN2CCCC(Nc3ncc(Cl)c(Nc4ccccc4S(=O)(=O)C(C)C)n3)C2)C(C)(C)C)cc1 (stereo not shown)  log2 fold change (22Rv1; RNA-seq, item: MOB3A mRNA; concentration not given; baseline: DMSO): -2.11
CCOc1cncc(-c2ccc(NC(=O)C3(c4ccnc(NS(=O)(=O)C5CC5)n4)CCOCC3)nc2)n1  IC50 (renal cancer; cell viability, CellTiter-Glo; DMSO 0.1%; 72 h, line code 2282): 5290 nM
CC(C)(C)c1cc(-c2ccc3cc4ccccc4nc3n2)nc(-c2ccc3cc4ccccc4nc3n2)c1.[Cl-].[Cl-].[Ru+2].c1ccc2cc3nc4c5cccnc5c5ncccc5c4nc3cc2c1  phototoxicity index (B16-F10; resazurin; together with: light 523 nm, 100 J/cm2; baseline: dark EC50 over light EC50): 3
CCCCCCCCCCCCCCCC(=O)OCC(CSC[C@H](N)C(=O)N[C@@H](CO)C(=O)N[C@@H](CCCCN)C(=O)N[C@@H](CCCCN)C(=O)N[C@@H](CCCCN)C(=O)N[C@@H](CCCCN)C(=O)NCCCCCC(=O)N[C@@H](CCCCN)C(=O)N[C@@H](CC(C)C)C(=O)N[C@H](C(=O)N[C@@H](Cc1ccccc1)C(=O)N[C@@H](Cc1ccccc1)C(=O)N[C@@H](Cc1ccc2ccccc2c1)C(=O)O)C(C)C)OC(=O)CCCCCCCCCCCCCCC (stereo partly shown)  mRNA level (BV-2; RNA-seq, item: Csf2; concentration not given): 2.5 FPKM and 4.55 FPKM and 2.84 FPKM
CN(C)CCN1CCN(c2ccc3nc(-c4ccc5nc(-c6ccc(C(F)(F)F)cc6)[nH]c5c4)[nH]c3c2)CC1  growth percent (OVCAR-4; SRB; 10 µM, 48 h): -4.77%
Cc1ccncc1.[Cl-].[Cl-].[Ru+2].c1cc(-c2ccc3cccnc3n2)nc(-c2ccc3cccnc3n2)c1.c1ccc2cc3nc4c5cccnc5c5ncccc5c4nc3cc2c1  EC50 (B16-F10; photocytotoxicity, resazurin; visible light 400-700 nm, 20 mW, 100 J/cm2): 939 nM and 940 nM
CCCCCCc1cccc([C@H](O)C[C@H](CO)NC(=O)CCCCCCCCCCBr)c1  lactosylceramide level (HeLa; CERT activity, HPLC-MS/MS lipidomics, item: lactosylceramide 24:1; 1 µM, 24 h, not cell-number normalised): 6410 pmol/sample and 8450 pmol/sample and 9050 pmol/sample
CC(C)c1ccc(N(C)c2ccc3c(c2)OCC[C@H]3CNc2cnccc2C(=O)O)cc1  IC50 (HCC1937; cell viability, CellTiter-Glo; 7 days): ≥ 10000 nM
Cn1ncc2cc(-c3cncc(Cl)c3N3CCC4(CCNC4=O)CC3)ccc21  log2 fold change (LS174T; gene expression, microarray, item: PLAC8 mRNA; concentration not given, 24 h; baseline: untreated cells): 2.47
CNS(=O)(=O)Nc1nccc(Cc2c(C)c3ccc(Oc4ncccc4F)cc3oc2=O)c1F  IC50 (WILL-1; cell viability; 7 days): > 1000 nM
[BH3-][P+]1(c2ccccc2)CCCCC1  necrotic cells (HCT-116; annexin V/PI flow cytometry; IC50, 72 h): 0.55%
